Measured values from different studies.
Every numbered part comes from another study and shows a few of its results, in no order.

Study 1 — Structure (SMILES): C=CCc1ccc(O)c(-c2ccc(O)c(CC=C)c2)c1
ANO1 del476-501: Anoctamin-1 (ANO1, Homo sapiens, UniProt Q5XXA6, del476-501)
ANO1 del476-501/F628A: Anoctamin-1 (ANO1, Homo sapiens, UniProt Q5XXA6, del476-501/F628A)
| target | test | conditions | normalized current |
| --- | --- | --- | --- |
| ANO1 del476-501 | chloride current, whole-cell voltage clamp | 3 µM, wild type, concentration-response at 20 mV, together with: 4 µM Ca2+ | 0.144 |
| ANO1 del476-501/F628A | chloride current, whole-cell voltage clamp | 3 µM, concentration-response at 60 mV, together with: 4 µM Ca2+ | 0.538 |
| ANO1 del476-501/F628A | chloride current, whole-cell voltage clamp | 100 µM, concentration-response at -20 mV, together with: 4 µM Ca2+ | -0.0307 |
| ANO1 del476-501 | chloride current, whole-cell voltage clamp | 3 µM, wild type, I-V at 40 mV, together with: 4 µM Ca2+ | 0.315 |
| ANO1 del476-501/F628A | chloride current, whole-cell voltage clamp | 1 µM, I-V at -20 mV, together with: 4 µM Ca2+ | -0.143 |
| Anoctamin-1 (ANO1, Homo sapiens, UniProt Q5XXA6, del476-501/E649A) | ion current, inside-out patch clamp | 10 µM, E623A mutant at 100 mV | 0.822 |
| Anoctamin-1 (ANO1, Homo sapiens, UniProt Q5XXA6) | chloride current, inside-out patch clamp | 10 µM, membrane voltage 100 mV | 0.818 |

Study 2 — observed: enzyme activity; concentration: 5 µM; baseline: untreated control
Compound: O=C(Nc1cnn(-c2csc(C(=O)NC3COC3)c2)c1)Nc1c(F)cccc1Cl
| target | remaining activity |
| --- | --- |
| Mitogen-activated protein kinase 1 (MAPK1, Homo sapiens, UniProt P28482) | 83.9% |
| Mitogen-activated protein kinase 11 (MAPK11, Homo sapiens, UniProt Q15759) | 88.8% |
| Mitogen-activated protein kinase kinase kinase 3 (MAP3K3, Homo sapiens, UniProt Q99759) | 80.4% |
| Microtubule-associated serine/threonine-protein kinase 3 (MAST3, Homo sapiens, UniProt O60307) | 104% |
| Serine/threonine-protein kinase SBK1 (SBK1, Homo sapiens, UniProt Q52WX2) | 95.7% |
| Ephrin type-B receptor 2 (EPHB2, Homo sapiens, UniProt P29323) | 98.3% |

Study 3 — organism: Sarcocystis neurona; observed: parasite growth; concentration: concentration not given; notes: second screen; baseline: untreated
| SMILES | log2 fold change |
| --- | --- |
| CN(Cc1cnc2nc(N)nc(N)c2n1)c1ccc(C(=O)N[C@@H](CCC(=O)O)C(=O)O)cc1.O | 0.35 |
| COc1nc(C)nc(Cl)c1NC1=NCCN1.Cl | 0.48 |
| CCOC(=O)c1ccc(OC(=O)CCCCCN=C(N)N)cc1.CS(=O)(=O)O | 0.28 |
| CC(CCCCC(=O)Nc1ccc(C(F)(F)F)cc1)NCCc1cnc[nH]1 (centres unmarked) | 0.11 |
| Cc1sc(N)c(C(=O)c2cccc(C(F)(F)F)c2)c1C | 0.21 |
| CN(C)CC[C@@H](c1ccc(Br)cc1)c1ccccn1.O=C(O)/C=C\C(=O)O (single isomer, unassigned) | 0.04 |
| C[N+]1(C)CCCC(OC(=O)C(O)(c2ccccc2)c2ccccc2)C1.[Br-] (centres unmarked) | 0.2 |
| C[C@]12CCC(=O)C=C1CC[C@@H]1[C@@H]2[C@@H](O)C[C@@]2(C)[C@H]1CC[C@]2(O)C(=O)COC(=O)CCC(=O)O | 0.0755 |
| Cl.NC(N)=NC(=O)c1nc(Cl)c(N)nc1N.O | 0.25 |
| CN(C)CCC=C1c2ccccc2CCc2ccccc21.Cl | 0.18 |
| CC(CN1c2ccccc2Sc2ccccc21)N(C)C.Cl (centres unmarked) | 0.51 |

Study 4 — observed: cell-free assay; method: competition with immobilised ligand; concentration: 1 µM
Structure (SMILES): O=C(NCc1ncc(C(F)(F)F)cc1Cl)c1ccc2c(c1)C1(CCS(=O)(=O)CC1)[C@@H](C1CC1)N2S(=O)(=O)c1ccc(F)cc1
| target | remaining binding |
| --- | --- |
| Serine/threonine-protein kinase pim-2 (PIM2, Homo sapiens, UniProt Q9P1W9) | 92% |
| Mast/stem cell growth factor receptor Kit (KIT, Homo sapiens, UniProt P10721, V559D) | 85% |
| Serine/threonine-protein kinase D1 (PRKD1, Homo sapiens, UniProt Q15139) | 76% |
| Myosin-IIIa (MYO3A, Homo sapiens, UniProt Q8NEV4) | 100% |
| Serine/threonine-protein kinase PLK3 (PLK3, Homo sapiens, UniProt Q9H4B4) | 82% |
| Protein-tyrosine kinase 2-beta (PTK2B, Homo sapiens, UniProt Q14289) | 100% |
| Epidermal growth factor receptor (EGFR, Homo sapiens, UniProt P00533, G719C) | 90% |
| Dual specificity tyrosine-phosphorylation-regulated kinase 2 (DYRK2, Homo sapiens, UniProt Q92630) | 90% |
| Phosphatidylinositol 4,5-bisphosphate 3-kinase catalytic subunit alpha isoform (PIK3CA, Homo sapiens, UniProt P42336, H1047L) | 85% |
| Tyrosine-protein kinase JAK1, JH1 (JAK1, Homo sapiens, UniProt P23458) | 85% |
| Phosphatidylinositol 4,5-bisphosphate 3-kinase catalytic subunit alpha isoform (PIK3CA, Homo sapiens, UniProt P42336, M1043I) | 56% |
| Serine/threonine-protein kinase MARK2 (MARK2, Homo sapiens, UniProt Q7KZI7) | 63% |
| NUAK family SNF1-like kinase 2 (NUAK2, Homo sapiens, UniProt Q9H093) | 75% |
| Serine/threonine-protein kinase ULK2 (ULK2, Homo sapiens, UniProt Q8IYT8) | 54% |
| Mitogen-activated protein kinase kinase kinase 4 (MAP3K4, Homo sapiens, UniProt Q9Y6R4) | 84% |
| NUAK family SNF1-like kinase 1 (NUAK1, Homo sapiens, UniProt O60285) | 88% |
| Casein kinase II subunit alpha' (CSNK2A2, Homo sapiens, UniProt P19784) | 72% |
| Mitogen-activated protein kinase kinase kinase 20 (MAP3K20, Homo sapiens, UniProt Q9NYL2) | 92% |
| Serine/threonine-protein kinase Sgk2 (SGK2, Homo sapiens, UniProt Q9HBY8) | 77% |
| STE20/SPS1-related proline-alanine-rich protein kinase (STK39, Homo sapiens, UniProt Q9UEW8) | 77% |

For quick reference, copied from above (study 2):
| target | remaining activity |
| --- | --- |
| Mitogen-activated protein kinase 11 (MAPK11, Homo sapiens, UniProt Q15759) | 88.8% |
| Mitogen-activated protein kinase kinase kinase 3 (MAP3K3, Homo sapiens, UniProt Q99759) | 80.4% |
| Microtubule-associated serine/threonine-protein kinase 3 (MAST3, Homo sapiens, UniProt O60307) | 104% |
